Measurements pooled from the literature.
Compare with care: the assays were run in different laboratories. ± gives the spread as reported.

Structure (SMILES)	assay	test system	setting	solubility
CN(C)S(=O)(=O)NCC1CCOC2(CCN(C(=O)C3(c4cccc(C(F)(F)F)c4)CCCC3)CC2)C1 (centres unmarked)			pH 7.4	90 µM
O=C(NCCCNc1nc(Nc2cccc(NC(=O)N3CCCC3)c2)ncc1I)c1cccs1		Capmul MCM C8	24 h, 37 °C	570 ± 280 µg/mL
C#Cc1ccc2c(c1)C(c1ccccn1)=NCc1c(-c3cnco3)ncn1-2		dichloromethane	24 h, 25 °C, thermodynamic equilibrium	4660 µg/mL
COC1=CC(c2ccc[nH]2)=N/C1=C\c1cc(Cc2ccc(C#N)cc2)c(C)[nH]1.Cl		potassium phosphate buffer	1.5 h, pH 7.4, room temperature, 100 mM buffer	50.4 µM
CCC[C@H](C)[C@H]1CN(C(=O)OCC)C[C@@H](c2cccnc2)N1	shake-flask, LC-HRMS	aqueous buffer	16 h, pH 6.8	> 750 µM
CC(C)(C)C(=O)NNCc1ccccc1		PBS	2 h, pH 7.4, 25 °C, 2% DMSO	424 µM
CS(=O)(=O)NCC1CCOC2(CCN(C(=O)C3(c4cccc(Cl)c4)CCCC3)CC2)C1 (centres unmarked)			pH 7.4	> 220 µM
CCOC(=O)N1C[C@@H](C2CCCC2)N[C@@H](c2cccnc2)C1	shake-flask, LC-HRMS	aqueous buffer	16 h, pH 6.8	> 750 µM
CSCC[C@H](NC(=O)[C@H](CCC(=O)O)NC(=O)[C@@H]1CCCN1C(=O)[C@@H](NC(=O)[C@@H]1CCCN1)[C@@H](C)O)C(=O)N[C@@H](CCCNC(=N)N)C(=O)N[C@@H](CCC(=O)O)C(=O)N[C@@H](CCCCN)C(=O)N[C@@H](CC(C)C)C(=O)N[C@H]1CSSC[C@@H]2NC(=O)[C@@H](NC(=O)[C@H](Cc3ccc(O)cc3)NC(=O)[C@H](CCCNC(=N)N)NC(=O)[C@H](C)NC(=O)[C@@H]3CCCN3C(=O)[C@H](CC(N)=O)NC(=O)[C@@H](NC(=O)[C@H](C)NC(=O)[C@H](C)NC(=O)[C@H](C)N)[C@@H](C)O)CSSC[C@H](NC(=O)CNC(=O)[C@H](CO)NC(=O)[C@H](CC(C)C)NC2=O)C(=O)N[C@@H]([C@@H](C)O)C(=O)N[C@@H](CCC(N)=O)C(=O)N[C@@H](CCC(N)=O)C(=O)N[C@@H](CC(=O)O)C(=O)N[C@@H](CC(C)C)C(=O)N[C@@H](CC(C)C)C(=O)N[C@@H]([C@@H](C)O)C(=O)N[C@@H](CC(C)C)C(=O)N[C@H](C(=O)N2CCC[C@H]2C(=O)N[C@@H](Cc2ccc(O)cc2)C(=O)O)CSSC[C@@H](C(=O)NCC(=O)NCC(=O)N2CCC[C@H]2C(=O)N[C@@H](CCCNC(=N)N)C(=O)N[C@@H](Cc2c[nH]c3ccccc23)C(=O)N[C@@H](CO)C(=O)N[C@H](C(=O)N[C@@H](CCC(=O)O)C(=O)N[C@@H](C)C(=O)O)[C@@H](C)O)NC(=O)[C@H](C(C)C)NC(=O)[C@H](CCCNC(=N)N)NC(=O)[C@H](C(C)C)NC(=O)[C@H](CC(C)C)NC(=O)[C@H](C)NC(=O)[C@H](CCCNC(=N)N)NC(=O)[C@H](C(C)C)NC(=O)[C@H](Cc2ccccc2)NC(=O)[C@H](Cc2c[nH]cn2)NC(=O)[C@H](Cc2c[nH]cn2)NC(=O)CNC1=O		water		~100 µM
COC1=CC(c2ccc[nH]2)=N/C1=C\c1cc(-c2ccc(OC(F)(F)F)cc2)c(C)[nH]1.Cl		potassium phosphate buffer	1.5 h, pH 7.4, room temperature, 100 mM buffer	< 3.13 µM
CCOC(=O)N1C[C@@H](c2ccc(C)nc2)N[C@@H](C(C)C)C1	shake-flask, LC-HRMS	aqueous buffer	16 h, pH 6.8	> 750 µM
CC[C@@]1(O)C(=O)OCc2c1cc1n(c2=O)Cc2cc3cc4c(cc3nc2-1)OCO4				< 1 µg/mL
CC[C@H](C)[C@H](NC(=O)[C@H](CCC(=O)O)NC(=O)[C@H](CCCCN)NC(=O)[C@H](CC(C)C)NC(=O)[C@H](CC(=O)O)NC(=O)[C@@H](NC(=O)[C@H](Cc1ccc(O)cc1)NC(=O)[C@H](CO)NC(=O)[C@H](CCC(=O)O)NC(=O)[C@H](CCC(=O)O)NC(=O)[C@H](CC(C)C)NC(=O)[C@H](CCCCN)NC(=O)[C@H](CCCCN)NC(=O)[C@@H](NC(=O)[C@H](C)NC(=O)[C@H](CCC(=O)O)NC(=O)[C@H](CCC(=O)O)NC(=O)[C@H](CC(C)C)NC(=O)[C@H](CCCCN)NC(=O)[C@H](CCCCN)NC(=O)[C@H](CCSC)NC(=O)[C@H](CCC(=O)O)NC(=O)[C@H](Cc1ccc(O)cc1)NC(=O)[C@H](CCC(=O)O)NC(=O)[C@H](CC(C)C)NC(=O)[C@H](CC(=O)O)NC(=O)[C@H](CC(C)C)NC(=O)[C@H](Cc1ccccc1)NC(=O)[C@@H](NC(=O)[C@@H](NC(=O)[C@H](CC(N)=O)NC(=O)[C@@H](NC(=O)[C@H](CCC(N)=O)NC(=O)[C@H](CC(=O)O)NC(=O)[C@H](CC(C)C)NC(=O)[C@@H](N)CO)[C@@H](C)CC)C(C)C)[C@@H](C)O)[C@@H](C)CC)[C@@H](C)CC)C(=O)O		PBS	pH 7.2	1080 ± 83 µM
Cn1c(=O)ccc2ccc(F)c(CCNC[C@H]3CN(c4ccc5c(n4)NC(=O)CO5)C(=O)O3)c21		aqueous buffer		151 µM
COC1=C(OC)/C(=C/c2cc(Cc3ccc(OC(F)(F)F)cc3)c(C)[nH]2)N=C1c1ccc[nH]1.Cl		potassium phosphate buffer	1.5 h, pH 7.4, room temperature, 100 mM buffer	6.6 µM
CN(C)S(=O)(=O)NCC1CCOC2(CCN(C(=O)C3(c4cccnc4)CCCC3)CC2)C1 (centres unmarked)			pH 7.4	160 µM
COC1=CC(c2ccc[nH]2)=N/C1=C\c1[nH]c(Cc2ccccc2)cc1Cc1ccccc1.Cl		potassium phosphate buffer	1.5 h, pH 7.4, room temperature, 100 mM buffer	< 3.13 µM
COc1cc2c(cc1NC(=O)c1ccc(C(C)(C)C)cc1)CCCC2			pH 7.4	5 µM
COc1cc(Nc2ncc(F)c(Nc3ccc4c(n3)NC(=O)C(C)(C)O4)n2)cc(OC)c1OC		non-kinase assay buffer	24 h, pH 7.5, 0.1% DMSO	2.6 µM
COc1ccc(-c2oc3cc(OC)cc(OC)c3c(=O)c2OC)cc1	HPLC	ethanol:butylene glycol 50:50		6367 ± 18 ppm
CCc1ccc(OCCc2cccc(F)c2)c(C(N)=O)c1		PBS	30 (unit not given), pH 7.4	50 µM
CC[C@@H]1NC(=O)[C@H]([C@@H](C)CC)NC(=O)[C@H](CC(C)C)NC(=O)[C@@H]2CCCN2C(=O)[C@@H](CC(C)C)NC(=O)[C@H]2CCCN2C(=O)[C@@H](Cc2ccc(O)cc2)NC(=O)CSC[C@@H](C(=O)O)NC(=O)[C@H]([C@@H](C)O)NC(=O)[C@H]([C@@H](C)CC)NC(=O)[C@H](C)NC1=O		HBSS	pH 7.4	776 µM
CC(C)N(Cc1ccccc1)C(=O)C(C)(C)C		PBS	pH 7.4, 25 °C, 2% DMSO	323 µM

For quick reference, copied from above:
Structure (SMILES)	assay	test system	setting	solubility
CSCC[C@H](NC(=O)[C@H](CCC(=O)O)NC(=O)[C@@H]1CCCN1C(=O)[C@@H](NC(=O)[C@@H]1CCCN1)[C@@H](C)O)C(=O)N[C@@H](CCCNC(=N)N)C(=O)N[C@@H](CCC(=O)O)C(=O)N[C@@H](CCCCN)C(=O)N[C@@H](CC(C)C)C(=O)N[C@H]1CSSC[C@@H]2NC(=O)[C@@H](NC(=O)[C@H](Cc3ccc(O)cc3)NC(=O)[C@H](CCCNC(=N)N)NC(=O)[C@H](C)NC(=O)[C@@H]3CCCN3C(=O)[C@H](CC(N)=O)NC(=O)[C@@H](NC(=O)[C@H](C)NC(=O)[C@H](C)NC(=O)[C@H](C)N)[C@@H](C)O)CSSC[C@H](NC(=O)CNC(=O)[C@H](CO)NC(=O)[C@H](CC(C)C)NC2=O)C(=O)N[C@@H]([C@@H](C)O)C(=O)N[C@@H](CCC(N)=O)C(=O)N[C@@H](CCC(N)=O)C(=O)N[C@@H](CC(=O)O)C(=O)N[C@@H](CC(C)C)C(=O)N[C@@H](CC(C)C)C(=O)N[C@@H]([C@@H](C)O)C(=O)N[C@@H](CC(C)C)C(=O)N[C@H](C(=O)N2CCC[C@H]2C(=O)N[C@@H](Cc2ccc(O)cc2)C(=O)O)CSSC[C@@H](C(=O)NCC(=O)NCC(=O)N2CCC[C@H]2C(=O)N[C@@H](CCCNC(=N)N)C(=O)N[C@@H](Cc2c[nH]c3ccccc23)C(=O)N[C@@H](CO)C(=O)N[C@H](C(=O)N[C@@H](CCC(=O)O)C(=O)N[C@@H](C)C(=O)O)[C@@H](C)O)NC(=O)[C@H](C(C)C)NC(=O)[C@H](CCCNC(=N)N)NC(=O)[C@H](C(C)C)NC(=O)[C@H](CC(C)C)NC(=O)[C@H](C)NC(=O)[C@H](CCCNC(=N)N)NC(=O)[C@H](C(C)C)NC(=O)[C@H](Cc2ccccc2)NC(=O)[C@H](Cc2c[nH]cn2)NC(=O)[C@H](Cc2c[nH]cn2)NC(=O)CNC1=O		water		~100 µM
CCC[C@H](C)[C@H]1CN(C(=O)OCC)C[C@@H](c2cccnc2)N1	shake-flask, LC-HRMS	aqueous buffer	16 h, pH 6.8	> 750 µM
